{"data": "Published values collected from several papers", "note": "Numbered parts are unrelated; each lists some results of a single study.", "UniProt Q86YV6, sequence (whole entry, looked up)": "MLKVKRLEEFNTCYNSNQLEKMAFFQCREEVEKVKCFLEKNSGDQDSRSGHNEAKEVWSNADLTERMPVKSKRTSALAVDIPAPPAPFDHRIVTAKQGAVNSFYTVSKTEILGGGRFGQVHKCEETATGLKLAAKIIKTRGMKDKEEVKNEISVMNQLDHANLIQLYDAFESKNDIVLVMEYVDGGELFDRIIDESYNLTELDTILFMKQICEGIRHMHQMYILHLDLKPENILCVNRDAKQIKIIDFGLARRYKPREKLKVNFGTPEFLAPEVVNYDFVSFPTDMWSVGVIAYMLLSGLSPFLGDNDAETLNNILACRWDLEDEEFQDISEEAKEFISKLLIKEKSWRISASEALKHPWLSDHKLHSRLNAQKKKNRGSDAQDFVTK", "UniProt O75716, sequence (whole entry, looked up)": "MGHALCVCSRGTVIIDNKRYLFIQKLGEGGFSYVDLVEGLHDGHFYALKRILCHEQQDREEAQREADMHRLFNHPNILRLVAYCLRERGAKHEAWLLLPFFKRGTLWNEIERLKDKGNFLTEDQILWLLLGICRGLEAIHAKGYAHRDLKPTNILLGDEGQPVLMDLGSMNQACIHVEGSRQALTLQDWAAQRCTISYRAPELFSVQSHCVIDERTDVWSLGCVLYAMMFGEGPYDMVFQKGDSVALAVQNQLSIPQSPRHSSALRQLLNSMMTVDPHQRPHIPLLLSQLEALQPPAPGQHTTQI", "UniProt Q15831, sequence (whole entry, looked up)": "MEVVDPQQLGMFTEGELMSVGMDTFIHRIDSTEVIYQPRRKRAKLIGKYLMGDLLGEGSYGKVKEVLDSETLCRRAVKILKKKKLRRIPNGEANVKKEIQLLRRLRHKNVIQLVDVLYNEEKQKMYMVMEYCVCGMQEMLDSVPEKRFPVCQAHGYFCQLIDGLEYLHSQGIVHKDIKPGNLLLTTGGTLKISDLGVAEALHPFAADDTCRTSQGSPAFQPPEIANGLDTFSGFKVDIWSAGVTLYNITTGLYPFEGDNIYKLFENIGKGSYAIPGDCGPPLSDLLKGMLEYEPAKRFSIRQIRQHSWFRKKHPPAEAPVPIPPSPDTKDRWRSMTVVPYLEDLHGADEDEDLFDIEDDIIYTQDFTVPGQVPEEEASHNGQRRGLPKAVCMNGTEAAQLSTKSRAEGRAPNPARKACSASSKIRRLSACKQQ", "UniProt O94806, sequence (whole entry, looked up)": "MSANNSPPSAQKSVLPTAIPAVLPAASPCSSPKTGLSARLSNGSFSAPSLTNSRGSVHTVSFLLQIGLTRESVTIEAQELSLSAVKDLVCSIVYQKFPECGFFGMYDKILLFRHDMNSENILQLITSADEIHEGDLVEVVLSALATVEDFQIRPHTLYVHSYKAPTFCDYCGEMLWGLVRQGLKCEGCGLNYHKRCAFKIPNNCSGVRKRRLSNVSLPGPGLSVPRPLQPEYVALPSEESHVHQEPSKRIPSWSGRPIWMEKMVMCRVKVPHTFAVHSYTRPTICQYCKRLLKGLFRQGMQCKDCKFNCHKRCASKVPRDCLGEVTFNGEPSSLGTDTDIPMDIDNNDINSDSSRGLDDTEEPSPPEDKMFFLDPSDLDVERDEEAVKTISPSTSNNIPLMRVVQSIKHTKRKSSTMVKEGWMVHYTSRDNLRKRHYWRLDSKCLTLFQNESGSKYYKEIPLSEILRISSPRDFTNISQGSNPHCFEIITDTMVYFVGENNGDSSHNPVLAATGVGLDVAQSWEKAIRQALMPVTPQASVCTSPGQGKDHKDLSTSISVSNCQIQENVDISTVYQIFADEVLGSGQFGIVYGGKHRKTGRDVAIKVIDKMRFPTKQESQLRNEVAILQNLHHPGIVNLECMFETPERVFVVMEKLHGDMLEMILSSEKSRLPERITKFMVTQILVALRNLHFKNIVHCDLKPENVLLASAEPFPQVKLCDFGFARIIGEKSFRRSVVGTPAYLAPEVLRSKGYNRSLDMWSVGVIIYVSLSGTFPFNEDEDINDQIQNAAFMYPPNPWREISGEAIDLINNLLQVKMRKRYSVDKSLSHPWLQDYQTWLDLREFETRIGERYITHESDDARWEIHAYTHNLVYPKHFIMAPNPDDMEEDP", "UniProt O00238, sequence (whole entry, looked up)": "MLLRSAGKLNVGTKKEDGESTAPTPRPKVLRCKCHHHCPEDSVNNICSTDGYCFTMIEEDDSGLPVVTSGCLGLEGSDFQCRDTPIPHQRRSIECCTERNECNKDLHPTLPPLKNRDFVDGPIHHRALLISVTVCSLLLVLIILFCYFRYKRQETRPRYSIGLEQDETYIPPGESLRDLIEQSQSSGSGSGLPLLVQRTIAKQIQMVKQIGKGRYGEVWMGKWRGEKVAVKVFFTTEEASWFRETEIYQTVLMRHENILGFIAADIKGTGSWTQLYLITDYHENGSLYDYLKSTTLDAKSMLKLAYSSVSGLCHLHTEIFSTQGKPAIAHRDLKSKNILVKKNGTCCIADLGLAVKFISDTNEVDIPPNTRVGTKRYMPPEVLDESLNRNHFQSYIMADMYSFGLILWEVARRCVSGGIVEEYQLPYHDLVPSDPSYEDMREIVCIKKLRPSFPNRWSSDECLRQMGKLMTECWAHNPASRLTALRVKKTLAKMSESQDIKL", "UniProt O75676, sequence (whole entry, looked up)": "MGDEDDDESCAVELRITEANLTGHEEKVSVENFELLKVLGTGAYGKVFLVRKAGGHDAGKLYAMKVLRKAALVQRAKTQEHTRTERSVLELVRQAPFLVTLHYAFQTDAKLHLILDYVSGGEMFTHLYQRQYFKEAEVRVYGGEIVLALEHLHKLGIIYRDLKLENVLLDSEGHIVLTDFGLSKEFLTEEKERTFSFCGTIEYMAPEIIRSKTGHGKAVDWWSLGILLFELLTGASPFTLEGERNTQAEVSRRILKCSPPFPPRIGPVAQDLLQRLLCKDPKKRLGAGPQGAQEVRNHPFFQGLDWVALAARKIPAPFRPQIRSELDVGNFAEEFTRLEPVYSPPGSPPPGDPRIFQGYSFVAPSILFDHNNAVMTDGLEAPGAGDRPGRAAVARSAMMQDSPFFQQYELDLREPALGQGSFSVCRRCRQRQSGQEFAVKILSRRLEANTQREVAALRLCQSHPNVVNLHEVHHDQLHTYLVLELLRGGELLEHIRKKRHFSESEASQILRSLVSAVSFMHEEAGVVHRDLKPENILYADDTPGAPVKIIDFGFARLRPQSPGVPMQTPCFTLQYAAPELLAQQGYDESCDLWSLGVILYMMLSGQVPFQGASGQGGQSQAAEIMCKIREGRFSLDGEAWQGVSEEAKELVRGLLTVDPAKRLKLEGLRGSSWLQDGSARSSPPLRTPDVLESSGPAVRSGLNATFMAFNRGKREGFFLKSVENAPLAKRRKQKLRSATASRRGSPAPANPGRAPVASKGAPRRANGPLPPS"}
{"data": "Series 1", "target": "BDNF/NT-3 growth factors receptor (NTRK2, Homo sapiens, UniProt Q16620)", "effect on": "enzyme activity", "mode": "inhibitor", "concentration": "0.5 µM", "reference": "control", "UniProt Q16620, sequence (whole entry, looked up)": "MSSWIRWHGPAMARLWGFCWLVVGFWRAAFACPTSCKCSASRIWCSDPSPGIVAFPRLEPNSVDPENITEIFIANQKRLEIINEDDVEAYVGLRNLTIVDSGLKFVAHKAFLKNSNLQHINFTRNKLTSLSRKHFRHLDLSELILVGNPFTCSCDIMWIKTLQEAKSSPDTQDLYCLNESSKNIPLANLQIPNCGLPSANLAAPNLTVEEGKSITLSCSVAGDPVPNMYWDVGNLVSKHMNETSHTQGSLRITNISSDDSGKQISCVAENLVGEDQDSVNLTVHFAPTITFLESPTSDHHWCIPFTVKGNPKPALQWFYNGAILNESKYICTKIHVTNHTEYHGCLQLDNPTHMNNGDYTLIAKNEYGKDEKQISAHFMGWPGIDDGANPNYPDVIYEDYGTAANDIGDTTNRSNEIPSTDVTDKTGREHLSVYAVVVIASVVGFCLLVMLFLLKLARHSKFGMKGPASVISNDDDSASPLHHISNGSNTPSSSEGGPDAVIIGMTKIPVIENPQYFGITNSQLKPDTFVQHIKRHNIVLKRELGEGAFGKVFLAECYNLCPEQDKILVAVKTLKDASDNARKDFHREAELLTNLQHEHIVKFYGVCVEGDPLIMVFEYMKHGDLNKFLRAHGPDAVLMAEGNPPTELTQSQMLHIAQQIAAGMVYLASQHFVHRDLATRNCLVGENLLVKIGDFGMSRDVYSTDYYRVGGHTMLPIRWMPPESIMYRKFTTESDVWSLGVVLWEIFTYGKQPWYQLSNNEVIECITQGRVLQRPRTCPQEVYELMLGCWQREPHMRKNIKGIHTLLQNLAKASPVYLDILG"}
{"SMILES": "CC[n+]1c(/C=C/N(C)c2ccccc2)n(-c2ccccc2)c2ccc(-c3nc4ccccc4s3)cc21", "remaining activity": "97.8%"}
{"SMILES": "O=C1Cc2c([nH]c3ccc([N+](=O)[O-])cc23)-c2ccccc2N1", "remaining activity": "86.1%"}
{"SMILES": "CSc1nc(-c2ccnc(N[C@@H](C)c3ccccc3)c2)c(-c2ccc(F)cc2)[nH]1 (racemic)", "remaining activity": "88.5%"}
{"SMILES": "COc1cc(Nc2c(C#N)cnc3cc(OCCCN4CCN(C)CC4)c(OC)cc23)c(Cl)cc1Cl", "remaining activity": "69.2%"}
{"SMILES": "CCCC(=O)Oc1ccc2[nH]c(C(=O)c3cc4ccccc4[nH]3)cc2c1", "remaining activity": "89.8%"}
{"SMILES": "Cc1cc(Nc2nc(-c3ccccc3)nc3ccccc23)n[nH]1", "remaining activity": "4.37%"}
{"SMILES": "Fc1ccc(-c2nc3n(c2-c2ccncc2)CCS3)cc1", "remaining activity": "103%"}
{"SMILES": "Cc1ccc(NC2=CC(=O)c3sc(C)nc3C2=O)cc1", "remaining activity": "100%"}
{"SMILES": "CC#CC(=O)Nc1cc2c(Nc3ccc(F)c(Cl)c3)ncnc2cn1", "remaining activity": "100%"}
{"SMILES": "Nc1nccc(-c2c(-c3ccc(F)cc3)ncn2C2CCNCC2)n1", "remaining activity": "103%"}
{"SMILES": "NC(=O)c1ccc(N(C(N)=O)c2c(F)cccc2F)nc1-c1ccc(F)cc1F", "remaining activity": "102%"}
{"SMILES": "Nc1ncnc2c1cnn2-c1ccccc1", "remaining activity": "88.7%"}
{"SMILES": "N#CC(=C(N)Sc1ccc(N)cc1)c1ccccc1C(F)(F)F", "remaining activity": "103%"}
{"SMILES": "CC(C)(C)n1nc(Cc2cccc3ccccc23)c2c(N)ncnc21", "remaining activity": "87.2%"}
{"SMILES": "Cc1cncc2cccc(S(=O)(=O)N3CCCN(C(=O)CN)C[C@@H]3C)c12", "remaining activity": "102%"}
{"SMILES": "Nc1nc(Nc2ccc(S(N)(=O)=O)cc2)nn1C(=O)c1c(F)cccc1F", "remaining activity": "42.8%"}
{"SMILES": "CCc1[nH]c(-c2ccc(OC)cc2)nc1-c1ccncc1", "remaining activity": "105%"}
{"SMILES": "O=C1NC(=O)C(c2c[nH]c3ccccc23)=C1c1c[nH]c2ccccc12", "remaining activity": "90.7%"}
{"SMILES": "Oc1ccc(Nc2nc(-c3ccc(Cl)cc3)cs2)cc1", "remaining activity": "107%"}
{"SMILES": "COc1ccc(S(=O)(=O)N(CCO)c2ccccc2CN(C)CC=Cc2ccc(Cl)cc2)cc1", "remaining activity": "104%"}
{"SMILES": "O=S(=O)(NCCNC/C=C/c1ccc(Br)cc1)c1cccc2cnccc12", "remaining activity": "95.1%"}
{"SMILES": "CC(=O)c1ccc(N2CCOCC2)cc1O", "remaining activity": "92.1%"}
{"data": "Series 2", "organism": "Plasmodium berghei", "mode": "inhibitor", "cells": "Huh-7", "strain": "GFP-expressing sporozoites, liver stage", "concentration": "10 µM", "time": "24 h", "reference": "untreated control"}
{"Structure (SMILES)": "Nc1ncn([C@@H]2O[C@H](CO)[C@@H](O)[C@H]2O)c(=O)n1", "infection rate": "66.9%"}
{"Structure (SMILES)": "CO/N=C(\\C(=O)N[C@@H]1C(=O)N2C(C(=O)O)=C(COC(C)=O)CS[C@H]12)c1csc(N)n1", "infection rate": "83.3%"}
{"Structure (SMILES)": "CC(=O)OCC(=O)[C@@]1(O)CC[C@H]2[C@@H]3CCC4=CC(=O)CC[C@]4(C)[C@H]3C(=O)C[C@@]21C", "infection rate": "94.1%"}
{"Structure (SMILES)": "CN(C)[C@@H]1C(O)=C(C(N)=O)C(=O)[C@@]2(O)C(O)=C3C(=O)c4c(O)ccc(Cl)c4[C@@](C)(O)[C@H]3C[C@@H]12", "infection rate": "51.9%"}
{"Structure (SMILES)": "CN(C)CCC(c1ccc(Br)cc1)c1ccccn1 (stereo not drawn)", "infection rate": "90.1%"}
{"Structure (SMILES)": "CCOC(=O)CCC(=O)O[C@H]1[C@H](O[C@@H]2[C@@H](C)[C@H](O[C@H]3C[C@@](C)(OC)[C@@H](O)[C@H](C)O3)[C@@H](C)C(=O)O[C@H](CC)[C@@](C)(O)[C@H](O)[C@@H](C)C(=O)[C@H](C)C[C@@]2(C)O)O[C@H](C)C[C@@H]1N(C)C", "infection rate": "96.1%"}
{"Structure (SMILES)": "CO/N=C(\\C(=O)N[C@@H]1C(=O)N2C(C(=O)OC(C)OC(C)=O)=C(COC(N)=O)CS[C@H]12)c1ccco1 (stereo partly drawn)", "infection rate": "91.9%"}
{"Structure (SMILES)": "CC(=O)O[C@]1(C(C)=O)CC[C@H]2[C@@H]3C=C(Cl)C4=CC(=O)[C@@H]5C[C@@H]5[C@]4(C)[C@H]3CC[C@@]21C", "infection rate": "93.4%"}
{"Structure (SMILES)": "CO[C@@]1(NC(=O)CSCC#N)C(=O)N2C(C(=O)O)=C(CSc3nnnn3C)CS[C@@H]21", "infection rate": "103%"}
{"data": "Series 3", "target": "Calcium/calmodulin-dependent protein kinase type II subunit alpha (CAMK2A, Homo sapiens, UniProt Q9UQM7)", "effect on": "enzyme activity", "mode": "inhibitor", "concentration": "10 µM", "UniProt Q9UQM7, sequence (whole entry, looked up)": "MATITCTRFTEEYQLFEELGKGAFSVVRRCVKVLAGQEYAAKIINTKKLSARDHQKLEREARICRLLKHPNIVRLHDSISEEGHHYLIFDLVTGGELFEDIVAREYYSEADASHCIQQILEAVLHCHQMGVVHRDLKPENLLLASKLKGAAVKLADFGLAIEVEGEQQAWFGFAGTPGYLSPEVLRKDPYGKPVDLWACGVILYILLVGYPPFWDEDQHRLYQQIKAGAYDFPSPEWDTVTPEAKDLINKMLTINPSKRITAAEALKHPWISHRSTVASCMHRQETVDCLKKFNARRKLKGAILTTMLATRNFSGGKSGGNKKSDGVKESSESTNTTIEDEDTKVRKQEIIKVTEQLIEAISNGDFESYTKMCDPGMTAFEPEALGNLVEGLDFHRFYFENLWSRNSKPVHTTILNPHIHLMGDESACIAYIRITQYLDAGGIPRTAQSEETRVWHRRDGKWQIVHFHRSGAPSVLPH"}
{"SMILES": "CC1(C)CC[C@]2(C(=O)O)CC[C@]3(C)C(=CC[C@@H]4[C@@]5(C)CCC(=O)C(C)(C)[C@@H]5CC[C@]43C)[C@@H]2C1", "inhibition [%]": -26}
{"SMILES": "CCN(CC)CC(=O)Oc1ccc(NC(C)=O)cc1", "inhibition [%]": -3}
{"SMILES": "O=Cc1ccc(O[C@@H]2O[C@H](CO)[C@@H](O)[C@@H](O)[C@H]2O)cc1", "inhibition [%]": 0}
{"SMILES": "CCCc1nc(C(C)(C)O)c(C(=O)OCc2oc(=O)oc2C)n1Cc1ccc(-c2ccccc2-c2nnn[nH]2)cc1", "inhibition [%]": -7}
{"SMILES": "O=C(O)[C@@H](O)[C@@H](O)[C@H](O)[C@@H](O)C(=O)O", "inhibition [%]": 4}
{"SMILES": "Cn1cnc([N+](=O)[O-])c1Sc1ncnc2[nH]cnc12", "inhibition [%]": -1}
{"SMILES": "COc1cc2nc(N3CCN(C(=O)[C@H]4CCCO4)CC3)nc(N)c2cc1OC", "inhibition [%]": -3}
{"SMILES": "CC(/C=C/C=C(\\C)C(=O)O)=C\\C=C\\C=C(C)\\C=C\\C=C(/C)C(=O)O", "inhibition [%]": 7}
{"SMILES": "Nc1ccc(S(N)(=O)=O)cc1", "inhibition [%]": 7}
{"SMILES": "CCCN(CCC)CCc1cccc2c1CC(=O)N2", "inhibition [%]": -2}
{"SMILES": "NS(=O)(=O)c1cc2c(cc1Cl)NC(C1CC3C=CC1C3)NS2(=O)=O (stereo not drawn)", "inhibition [%]": 4}
{"SMILES": "CCCC(=O)c1c(O)c(Cc2c(O)c(Cc3c(O)c(C)c(OC)c(C(=O)CCC)c3O)c(O)c(C(=O)[C@@H](C)CC)c2O)c(O)c(C)c1OC", "inhibition [%]": 21}
{"data": "Series 4", "SMILES": "O=C(NS(=O)(=O)c1ccc(NCC2CCOCC2)c([N+](=O)[O-])c1)c1ccc(N2CCN(Cc3ccc(C(F)(F)F)cc3-c3ccc(Cl)cc3)CC2)cc1Oc1cnc2[nH]ccc2c1", "effect on": "cell-free assay", "technique": "competition with immobilised ligand", "concentration": "1 µM"}
{"target": "BMPR1B (Homo sapiens, UniProt O00238)", "remaining binding [%]": 89}
{"target": "MAP3K19 (Homo sapiens, UniProt Q56UN5)", "remaining binding [%]": 71}
{"target": "WEE1 (Homo sapiens, UniProt P30291)", "remaining binding [%]": 100}
{"target": "STK16 (Homo sapiens, UniProt O75716)", "remaining binding [%]": 91}
{"target": "STK36 (Homo sapiens, UniProt Q9NRP7)", "remaining binding [%]": 88}
{"target": "STK11 (Homo sapiens, UniProt Q15831)", "remaining binding [%]": 100}
{"target": "EGFR (Homo sapiens, UniProt P00533, del746-750)", "remaining binding [%]": 100}
{"target": "Ribosomal protein S6 kinase alpha-4, N-terminal kinase domain (RPS6KA4, Homo sapiens, UniProt O75676)", "remaining binding [%]": 100}
{"target": "MYLK4 (Homo sapiens, UniProt Q86YV6)", "remaining binding [%]": 100}
{"target": "PRKD3 (Homo sapiens, UniProt O94806)", "remaining binding [%]": 100}
{"target": "FLT3 (Homo sapiens, UniProt P36888, D835H)", "remaining binding [%]": 100}
{"note": "For quick reference, copied from above (series 2):"}
{"Structure (SMILES)": "CC(=O)OCC(=O)[C@@]1(O)CC[C@H]2[C@@H]3CCC4=CC(=O)CC[C@]4(C)[C@H]3C(=O)C[C@@]21C", "infection rate": "94.1%"}
{"Structure (SMILES)": "CN(C)[C@@H]1C(O)=C(C(N)=O)C(=O)[C@@]2(O)C(O)=C3C(=O)c4c(O)ccc(Cl)c4[C@@](C)(O)[C@H]3C[C@@H]12", "infection rate": "51.9%"}
{"Structure (SMILES)": "CN(C)CCC(c1ccc(Br)cc1)c1ccccn1 (stereo not drawn)", "infection rate": "90.1%"}
{"Structure (SMILES)": "CCOC(=O)CCC(=O)O[C@H]1[C@H](O[C@@H]2[C@@H](C)[C@H](O[C@H]3C[C@@](C)(OC)[C@@H](O)[C@H](C)O3)[C@@H](C)C(=O)O[C@H](CC)[C@@](C)(O)[C@H](O)[C@@H](C)C(=O)[C@H](C)C[C@@]2(C)O)O[C@H](C)C[C@@H]1N(C)C", "infection rate": "96.1%"}
{"Structure (SMILES)": "CO/N=C(\\C(=O)N[C@@H]1C(=O)N2C(C(=O)OC(C)OC(C)=O)=C(COC(N)=O)CS[C@H]12)c1ccco1 (stereo partly drawn)", "infection rate": "91.9%"}
